Assay results collected from several papers.
Every numbered part comes from another study and shows a few of its results, in no order.
UniProt Q13976, sequence (whole entry, looked up): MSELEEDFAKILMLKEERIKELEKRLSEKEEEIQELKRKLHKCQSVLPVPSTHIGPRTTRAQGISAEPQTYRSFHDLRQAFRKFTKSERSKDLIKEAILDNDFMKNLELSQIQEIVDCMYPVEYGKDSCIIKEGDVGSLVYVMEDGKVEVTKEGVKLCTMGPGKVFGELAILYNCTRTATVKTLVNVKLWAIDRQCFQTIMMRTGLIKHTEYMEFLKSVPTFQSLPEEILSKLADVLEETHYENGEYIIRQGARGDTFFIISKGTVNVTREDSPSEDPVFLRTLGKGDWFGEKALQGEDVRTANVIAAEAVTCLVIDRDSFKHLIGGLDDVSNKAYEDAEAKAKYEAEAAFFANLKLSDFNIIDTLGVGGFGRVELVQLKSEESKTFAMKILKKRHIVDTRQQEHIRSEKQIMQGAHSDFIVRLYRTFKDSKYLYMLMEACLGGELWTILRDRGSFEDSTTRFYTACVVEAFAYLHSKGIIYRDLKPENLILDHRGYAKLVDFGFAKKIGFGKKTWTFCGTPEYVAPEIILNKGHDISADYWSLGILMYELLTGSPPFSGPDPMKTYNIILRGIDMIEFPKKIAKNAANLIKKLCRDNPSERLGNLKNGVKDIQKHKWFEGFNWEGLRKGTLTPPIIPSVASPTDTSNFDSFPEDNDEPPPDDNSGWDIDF
UniProt Q5S007, sequence (whole entry, looked up): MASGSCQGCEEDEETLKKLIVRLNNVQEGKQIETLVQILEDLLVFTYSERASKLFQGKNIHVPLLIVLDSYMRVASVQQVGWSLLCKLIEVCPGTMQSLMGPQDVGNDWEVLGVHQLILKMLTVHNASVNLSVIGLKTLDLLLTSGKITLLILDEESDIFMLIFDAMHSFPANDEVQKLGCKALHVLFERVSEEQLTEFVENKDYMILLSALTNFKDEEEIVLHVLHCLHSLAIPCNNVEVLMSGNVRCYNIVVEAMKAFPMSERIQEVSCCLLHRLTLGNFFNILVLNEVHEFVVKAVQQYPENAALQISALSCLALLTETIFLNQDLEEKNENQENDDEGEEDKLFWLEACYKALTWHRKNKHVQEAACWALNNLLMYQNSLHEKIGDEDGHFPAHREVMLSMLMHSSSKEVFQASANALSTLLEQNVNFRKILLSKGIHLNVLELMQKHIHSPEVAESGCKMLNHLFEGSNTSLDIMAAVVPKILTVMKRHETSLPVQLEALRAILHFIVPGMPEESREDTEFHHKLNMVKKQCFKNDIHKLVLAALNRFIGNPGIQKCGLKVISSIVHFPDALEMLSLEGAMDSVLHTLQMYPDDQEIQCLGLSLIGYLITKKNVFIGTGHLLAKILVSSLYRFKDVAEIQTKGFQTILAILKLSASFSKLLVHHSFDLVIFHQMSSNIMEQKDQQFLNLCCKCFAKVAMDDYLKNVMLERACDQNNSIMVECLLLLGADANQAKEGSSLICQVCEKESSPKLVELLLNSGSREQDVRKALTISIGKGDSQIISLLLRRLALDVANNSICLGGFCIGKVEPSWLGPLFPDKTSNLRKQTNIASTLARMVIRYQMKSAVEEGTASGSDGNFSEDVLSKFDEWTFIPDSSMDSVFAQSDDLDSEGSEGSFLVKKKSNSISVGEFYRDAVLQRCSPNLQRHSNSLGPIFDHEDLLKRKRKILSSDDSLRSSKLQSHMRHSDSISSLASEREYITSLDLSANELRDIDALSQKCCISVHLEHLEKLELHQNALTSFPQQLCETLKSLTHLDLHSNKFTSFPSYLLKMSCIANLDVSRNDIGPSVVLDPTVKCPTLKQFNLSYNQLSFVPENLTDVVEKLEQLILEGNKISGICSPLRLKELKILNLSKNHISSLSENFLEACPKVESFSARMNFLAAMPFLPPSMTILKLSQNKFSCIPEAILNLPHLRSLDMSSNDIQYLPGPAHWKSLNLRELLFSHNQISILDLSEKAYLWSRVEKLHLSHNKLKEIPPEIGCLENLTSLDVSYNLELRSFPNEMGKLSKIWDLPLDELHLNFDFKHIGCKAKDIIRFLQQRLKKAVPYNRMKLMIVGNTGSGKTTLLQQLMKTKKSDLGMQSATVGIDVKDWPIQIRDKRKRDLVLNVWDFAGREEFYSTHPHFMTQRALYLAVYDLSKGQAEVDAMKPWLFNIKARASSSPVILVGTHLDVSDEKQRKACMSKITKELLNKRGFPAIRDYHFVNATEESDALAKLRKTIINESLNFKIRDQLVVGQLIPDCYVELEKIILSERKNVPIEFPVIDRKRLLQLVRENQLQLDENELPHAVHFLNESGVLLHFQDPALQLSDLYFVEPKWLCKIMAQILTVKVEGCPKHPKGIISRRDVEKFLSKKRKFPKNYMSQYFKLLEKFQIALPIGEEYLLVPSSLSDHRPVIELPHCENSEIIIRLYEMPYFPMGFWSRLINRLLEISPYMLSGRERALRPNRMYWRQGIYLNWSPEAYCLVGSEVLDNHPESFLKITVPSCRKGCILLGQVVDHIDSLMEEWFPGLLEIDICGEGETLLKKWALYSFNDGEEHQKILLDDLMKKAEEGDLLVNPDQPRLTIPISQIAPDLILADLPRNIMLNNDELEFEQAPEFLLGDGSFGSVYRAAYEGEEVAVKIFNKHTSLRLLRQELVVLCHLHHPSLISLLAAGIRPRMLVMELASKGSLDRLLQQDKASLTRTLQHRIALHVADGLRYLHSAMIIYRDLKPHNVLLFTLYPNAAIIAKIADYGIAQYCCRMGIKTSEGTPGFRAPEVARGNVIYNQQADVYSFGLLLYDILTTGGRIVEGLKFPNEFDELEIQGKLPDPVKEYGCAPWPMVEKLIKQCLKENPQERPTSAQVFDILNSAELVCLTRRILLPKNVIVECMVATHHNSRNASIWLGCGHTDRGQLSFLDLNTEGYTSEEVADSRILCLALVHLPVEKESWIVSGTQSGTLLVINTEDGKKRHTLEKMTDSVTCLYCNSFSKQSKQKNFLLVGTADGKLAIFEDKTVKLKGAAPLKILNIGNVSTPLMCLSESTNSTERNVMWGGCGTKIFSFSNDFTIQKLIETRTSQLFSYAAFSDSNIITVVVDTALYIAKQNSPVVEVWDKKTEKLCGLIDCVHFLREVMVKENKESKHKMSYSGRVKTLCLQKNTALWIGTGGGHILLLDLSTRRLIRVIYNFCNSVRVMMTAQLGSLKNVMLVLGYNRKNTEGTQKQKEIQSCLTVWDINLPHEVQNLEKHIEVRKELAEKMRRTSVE
UniProt P53778, sequence (whole entry, looked up): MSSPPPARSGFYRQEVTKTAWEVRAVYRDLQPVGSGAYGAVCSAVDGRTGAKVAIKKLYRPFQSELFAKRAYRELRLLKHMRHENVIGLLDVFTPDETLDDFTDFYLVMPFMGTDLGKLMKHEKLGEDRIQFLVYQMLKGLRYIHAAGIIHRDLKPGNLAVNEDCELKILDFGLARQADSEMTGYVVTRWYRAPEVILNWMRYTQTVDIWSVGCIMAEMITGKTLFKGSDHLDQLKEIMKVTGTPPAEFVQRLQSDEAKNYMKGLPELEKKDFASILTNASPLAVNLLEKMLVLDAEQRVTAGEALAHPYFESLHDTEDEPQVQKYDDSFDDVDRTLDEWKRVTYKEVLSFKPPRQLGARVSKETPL
UniProt P10721, sequence (whole entry, unmodified, looked up): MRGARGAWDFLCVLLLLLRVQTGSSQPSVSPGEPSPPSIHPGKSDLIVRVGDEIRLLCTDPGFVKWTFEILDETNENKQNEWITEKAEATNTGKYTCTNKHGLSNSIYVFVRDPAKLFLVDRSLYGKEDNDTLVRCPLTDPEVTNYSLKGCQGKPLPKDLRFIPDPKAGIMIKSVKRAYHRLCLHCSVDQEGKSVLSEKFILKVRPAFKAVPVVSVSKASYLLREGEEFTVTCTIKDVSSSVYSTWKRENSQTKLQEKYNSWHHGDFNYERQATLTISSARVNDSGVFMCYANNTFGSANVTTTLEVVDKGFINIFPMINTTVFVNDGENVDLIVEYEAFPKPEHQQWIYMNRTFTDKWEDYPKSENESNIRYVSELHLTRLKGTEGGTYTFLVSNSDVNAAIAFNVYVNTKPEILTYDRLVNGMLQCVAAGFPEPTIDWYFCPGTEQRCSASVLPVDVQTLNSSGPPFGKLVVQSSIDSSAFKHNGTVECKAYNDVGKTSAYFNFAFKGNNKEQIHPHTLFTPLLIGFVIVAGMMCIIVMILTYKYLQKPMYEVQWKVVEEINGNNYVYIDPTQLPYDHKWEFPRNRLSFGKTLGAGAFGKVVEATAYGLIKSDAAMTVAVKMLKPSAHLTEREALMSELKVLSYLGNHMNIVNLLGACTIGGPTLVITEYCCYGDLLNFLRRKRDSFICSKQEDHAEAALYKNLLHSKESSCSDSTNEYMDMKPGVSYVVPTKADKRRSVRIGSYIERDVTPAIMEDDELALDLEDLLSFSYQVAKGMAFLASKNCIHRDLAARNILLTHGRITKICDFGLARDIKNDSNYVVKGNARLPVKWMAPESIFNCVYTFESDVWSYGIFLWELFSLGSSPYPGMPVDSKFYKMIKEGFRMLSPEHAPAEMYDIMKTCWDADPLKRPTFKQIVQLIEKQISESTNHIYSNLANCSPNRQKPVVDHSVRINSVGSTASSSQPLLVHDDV

Study 1 — observed: cell-free assay; technique: competition with immobilised ligand; tested at: 0.1 µM; endpoint: remaining binding
SMILES: CC(C)CC(=O)N1CCc2nc(-c3ccc(Br)cc3)nc(N(C)Cc3ccccc3)c2C1
RIOK2 (Homo sapiens, UniProt Q9BVS4): 100%
COQ8A (Homo sapiens, UniProt Q8NI60): 100%
Tyrosine-protein kinase ABL1, phosphorylated (ABL1, Homo sapiens, UniProt P00519): 66%
Tyrosine-protein kinase ABL1, phosphorylated (ABL1, Homo sapiens, UniProt P00519, Y253F): 97%
BMPR1B (Homo sapiens, UniProt O00238): 100%
MYLK2 (Homo sapiens, UniProt Q9H1R3): 96%
CDKL2 (Homo sapiens, UniProt Q92772): 87%
EPHA7 (Homo sapiens, UniProt Q15375): 99%
TTK (Homo sapiens, UniProt P33981): 100%
MAP3K12 (Homo sapiens, UniProt Q12852): 90%
TBK1 (Homo sapiens, UniProt Q9UHD2): 75%
CSF1R (Homo sapiens, UniProt P07333): 100%
PKMYT1 (Homo sapiens, UniProt Q99640): 92%
MAST1 (Homo sapiens, UniProt Q9Y2H9): 100%
STK11 (Homo sapiens, UniProt Q15831): 100%
LIM domain kinase 1 (LIMK1, Homo sapiens, UniProt P53667): 100%
NEK10 (Homo sapiens, UniProt Q6ZWH5): 100%
KIT (Homo sapiens, UniProt P10721, A829P): 97%
MAP3K6 (Homo sapiens, UniProt O95382): 100%
PRKG1 (Homo sapiens, UniProt Q13976): 74%
MAP3K4 (Homo sapiens, UniProt Q9Y6R4): 100%
EGFR (Homo sapiens, UniProt P00533, G719S): 100%
LRRK2 (Homo sapiens, UniProt Q5S007): 100%
FLT3 (Homo sapiens, UniProt P36888): 60%
DAPK2 (Homo sapiens, UniProt Q9UIK4): 100%

Study 2 — observed: enzyme activity; mode: inhibitor; tested at: 10 µM; endpoint: inhibition
Target: Calcium/calmodulin-dependent protein kinase type II subunit alpha (CAMK2A, Homo sapiens, UniProt Q9UQM7)
UniProt Q9UQM7, sequence (whole entry, looked up): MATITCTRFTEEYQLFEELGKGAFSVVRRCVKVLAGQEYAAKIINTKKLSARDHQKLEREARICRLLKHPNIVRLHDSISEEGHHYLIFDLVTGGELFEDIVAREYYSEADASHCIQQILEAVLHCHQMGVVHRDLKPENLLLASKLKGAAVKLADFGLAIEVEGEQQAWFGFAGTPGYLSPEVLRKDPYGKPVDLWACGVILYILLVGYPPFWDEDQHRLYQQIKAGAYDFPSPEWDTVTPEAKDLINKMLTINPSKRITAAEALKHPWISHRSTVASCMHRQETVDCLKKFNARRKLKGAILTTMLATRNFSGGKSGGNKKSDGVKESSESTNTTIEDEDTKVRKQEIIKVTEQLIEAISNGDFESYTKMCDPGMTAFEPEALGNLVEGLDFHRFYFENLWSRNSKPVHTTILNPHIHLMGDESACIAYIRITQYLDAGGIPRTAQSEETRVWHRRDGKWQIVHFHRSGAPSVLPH
C[C@@H]1CC[C@]2(C(=O)O[C@@H]3O[C@H](CO)[C@@H](O)[C@H](O)[C@H]3O)CC[C@]3(C)C(=CC[C@@H]4[C@@]5(C)CC[C@H](O[C@@H]6OC[C@H](O)[C@H](O)[C@H]6O)C(C)(C)[C@@H]5CC[C@]43C)[C@@H]2[C@]1(C)O: 0%
Cn1c(NCCN(CCO)CCCc2ccc([N+](=O)[O-])cc2)cc(=O)n(C)c1=O: -5%
O=CC(=O)O: -41%
C[C@H](CC[C@@H](O[C@@H]1O[C@H](CO)[C@@H](O)[C@H](O)[C@H]1O[C@@H]1O[C@H](CO)[C@@H](O)[C@H](O)[C@H]1O)C(C)(C)O)[C@H]1CC[C@@]2(C)[C@@H]3CC=C4[C@@H](CC[C@H](O)C4(C)C)[C@]3(C)[C@H](O)C[C@]12C: -10%
NCCC(=O)N[C@@H](Cc1cnc[nH]1)C(=O)O: 27%
CC(=O)OCC1=C[C@@H]2OC(=O)C3=CO[C@@H](O[C@@H]4O[C@H](CO)[C@@H](O)[C@H](O)[C@H]4O)[C@H]1[C@@H]32: -20%
COc1cc2c(cc1OC)[C@@H](Cc1ccc(Oc3cc(C[C@@H]4c5cc(OC)c(OC)cc5CCN4C)ccc3O)cc1)N(C)CC2: -28%
CSCC[C@H](NC(=O)[C@H](CC(C)C)NC(=O)CNC(=O)[C@H](Cc1ccccc1)NC(=O)[C@H](Cc1ccccc1)NC(=O)[C@H](CCC(N)=O)NC(=O)[C@H](CCC(N)=O)NC(=O)[C@@H]1CCCN1C(=O)[C@H](CCCCN)NC(=O)[C@@H]1CCCN1C(=O)[C@@H](N)CCCN=C(N)N)C(N)=O: -43%
COc1cc(O)c(C(C)=O)c(OC)c1: -22%

Study 3 — tested at: 1 µM; endpoint: remaining binding
Compound: COc1ccc2[nH]c3c4[nH]c5ccc(OC)cc5c4c4c(c3c2c1)C(=O)NC4=O
CDK8 (Homo sapiens, UniProt P49336); competitive binding panel; baseline: vehicle: 87%
ACVR2B (Homo sapiens, UniProt Q13705); competitive binding panel; baseline: vehicle: 44%
MAPK12 (Homo sapiens, UniProt P53778); competitive binding; p38-gamma: 70%
IRAK1 (Homo sapiens, UniProt P51617); competitive binding panel; baseline: vehicle: 94%
STK17A (Homo sapiens, UniProt Q9UEE5); competitive binding panel, item: DRAK1; baseline: vehicle: 0.4%
STK33 (Homo sapiens, UniProt Q9BYT3); competitive binding panel; baseline: vehicle: 33%
FRK (Homo sapiens, UniProt P42685); competitive binding panel; baseline: vehicle: 88%
EPHA5 (Homo sapiens, UniProt P54756); competitive binding panel; baseline: vehicle: 85%
STK26 (Homo sapiens, UniProt Q9P289); competitive binding panel, item: MST4; baseline: vehicle: 85%
FLT1 (Homo sapiens, UniProt P17948); competitive binding panel; baseline: vehicle: 79%
DMPK (Homo sapiens, UniProt Q09013); competitive binding panel; baseline: vehicle: 56%

Study 4 — observed: enzyme activity; mode: inhibitor; tested at: 0.5 µM; baseline: control; endpoint: remaining activity
SMILES: CS(=O)(=O)CCNCc1ccc(-c2ccc3ncnc(Nc4ccc(OCc5cccc(F)c5)c(Cl)c4)c3c2)o1
MAPK13 (Homo sapiens, UniProt O15264): 91.1%
EPHA5 (Homo sapiens, UniProt P54756): 103%
CHEK1 (Homo sapiens, UniProt O14757): 100%
PLK2 (Homo sapiens, UniProt Q9NYY3): 103%
CSNK2A1 (Homo sapiens, UniProt P68400): 121%
PRKCI (Homo sapiens, UniProt P41743): 106%
BTK (Homo sapiens, UniProt Q06187): 103%
PRKCD (Homo sapiens, UniProt Q05655): 103%
MAPK12 (Homo sapiens, UniProt P53778): 95%
IRAK4 (Homo sapiens, UniProt Q9NWZ3): 91.5%
NEK4 (Homo sapiens, UniProt P51957): 98.1%
PRKG1 (Homo sapiens, UniProt Q13976): 95.4%
AKT3 (Homo sapiens, UniProt Q9Y243): 83.5%
LRRK2 (Homo sapiens, UniProt Q5S007): 76.9%
MAP3K10 (Homo sapiens, UniProt Q02779): 108%
KIT (Homo sapiens, UniProt P10721): 98.4%
WNK2 (Homo sapiens, UniProt Q9Y3S1): 102%
CSNK1A1 (Homo sapiens, UniProt P48729): 104%
STK38 (Homo sapiens, UniProt Q15208): 101%
MAP4K2 (Homo sapiens, UniProt Q12851): 104%
MKNK2 (Homo sapiens, UniProt Q9HBH9): 97.3%

Excerpt of the above (study 3):
MAPK12 (Homo sapiens, UniProt P53778); competitive binding; p38-gamma: 70%
IRAK1 (Homo sapiens, UniProt P51617); competitive binding panel; baseline: vehicle: 94%
STK17A (Homo sapiens, UniProt Q9UEE5); competitive binding panel, item: DRAK1; baseline: vehicle: 0.4%
STK33 (Homo sapiens, UniProt Q9BYT3); competitive binding panel; baseline: vehicle: 33%
